Measurements of several laboratories.
“And” joins repeats or separate records; there may be more than shown. ± marks the error that the study gave.
SCTR: Secretin receptor (SCTR, Homo sapiens, UniProt P47872)
SLC5A1: Sodium/glucose cotransporter 1 (SLC5A1, Homo sapiens, UniProt P13866)
POLB: DNA polymerase beta (POLB, Homo sapiens, UniProt P06746)
T1: ssRNA FMR1 5' UTR CGG repeat (Homo sapiens); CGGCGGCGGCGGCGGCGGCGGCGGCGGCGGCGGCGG

Compound | target | assay | system | setting | how to read | measurement | value
[11CH3]c1ccc2nc(C3CCC3)n(-c3ccc4[nH]ncc4c3)c2n1 | Voltage-dependent calcium channel gamma-8 subunit (Rattus norvegicus, UniProt Q8VHW5) | PET, SRTM | Sprague-Dawley rat, striatum | baseline, unit not given | reference: cerebellum | BPND | 0.65
Nc1ccc(-c2cccs2)cc1NC(=O)c1ccccc1 | Histone deacetylase 1 (HDAC1, Homo sapiens, UniProt Q13547) | inhibitor | – | – | – | ligand efficiency | 0.36
C=Cc1c(C)c2cc3nc(c4c5[nH]c(cc6nc(cc1[nH]2)C(C)=C6CC)c(C)c5C(=O)C4)[C@@H](CCC(=O)NCC(=O)N1CCC[C@H]1C(=O)N[C@@H](CC(C)C)C(=O)NCC(=O)N[C@@H](Cc1ccccc1)C(=O)N[C@@H](CCCNC(=N)N)C(=O)N[C@H](C(=O)NCC(=O)N[C@@H](CCCCNC(=O)CCCN(C)c1ccc(/N=N/c2ccc4nc5ccc(N(CC)CC)cc5[n+](-c5ccccc5)c4c2)cc1)C(N)=O)C(C)C)[C@@H]3C | Macrophage metalloelastase (MMP12, Homo sapiens, UniProt P39900) | cleavage, substrate | – | concentration not given, 24 h, 37 °C | – | fluorescence activation | 20%
CCCCCCCCc1ccc(Oc2ccccc2)c(O)c1 | Enoyl-[acyl-carrier-protein] reductase [NADPH] FabI (Staphylococcus aureus, UniProt Q6GI75) | enzyme activity, inhibitor, progress curve kinetics | – | – | – | dissociation rate constant | 2.03 h⁻¹
Oc1ccc(C2CNCc3sccc32)cc1O (stereo not shown) | Carbamate kinase (Giardia intestinalis, UniProt A8BB85) | enzyme activity, inhibitor, luminescence, ATP detection | Giardia lamblia | – | – | maximal inhibition | 87.4%
Nc1nc2c(ncn2[C@H]2C[C@H](O)[C@@H](COP(=O)(O)OP(=O)(O)[C@@H](Cl)P(=O)(O)O)O2)c(=O)[nH]1 | DNA polymerase beta (POLB, Homo sapiens, UniProt P06746, R183A) | substrate, pre-steady-state kinetics | – | incorporation opposite dC in gapped DNA | – | kpol | 0.88 ± 0.13 s⁻¹
OC[C@H]1Oc2c(Cc3ccccc3)c(Cc3ccccc3)cc3c2[C@@H](OC3)[C@H]1O | Galectin-8, N-terminal CRD (LGALS8, Homo sapiens, UniProt O00214) | fluorescence polarization | – | unit not given | reference: methyl beta-galactoside | affinity increase | > 3
N#CCc1cccc(Cl)c1-c1ccc2[nH][11c](=O)[nH]c2c1 | Voltage-dependent calcium channel gamma-8 subunit, with AMPA receptor (Rattus norvegicus, UniProt Q8VHW5) | autoradiography | rat hippocampus sections | concentration not given, added: JNJ-56022486 1 µM | – | reduction of bound radioactivity | > 30%
CCCN(CC(=O)N(CCC)CC(=O)N(CCC)CC(=O)N(CCC)CC(=O)N(CCC)CC(=O)N(CCC)CC(=O)N(CCC)CC(=O)N(CC(N)=O)Cc1cn(CCCNC(=O)CCCOc2cccc(-c3nc4ccc(-c5nc6ccc(N7CCN(C)CC7)cc6[nH]5)cc4[nH]3)c2)nn1)C(=O)CNCc1cn(CCCNC(=O)CCCOc2cccc(-c3nc4ccc(-c5nc6ccc(N7CCN(C)CC7)cc6[nH]5)cc4[nH]3)c2)nn1 | T1, ssRNA FMR1 5' UTR CGG repeat (Homo sapiens) | protein displacement, competitor, TR-FRET | – | – | – | IC50 | 35 µM
COc1ccc(CCNc2nc(-c3ccccc3)cc(C(F)(F)F)n2)cc1OC | SCTR | cAMP accumulation, positive allosteric modulator | CHO-K1 overexpressing SCTR | added: EC10-EC20 secretin peptide mix | reference: EC95 peptide mix | Emax | 45 ± 19%
COc1cccc(OC)c1OCCCn1cc(CCCNc2nc3c(c(=O)[nH]2)[n+](C)cn3C2OC(COP(=O)(O)OP(=O)([O-])OP(=O)(O)OCC3OC(n4cnc5c(=O)[nH]c(N)nc54)C(O)C3O)C(O)C2O)nn1 (stereo not shown) | Eukaryotic translation initiation factor 4E (Eif4e, Mus musculus, UniProt P63073) | differential scanning fluorimetry | – | – | reference: m7GpppG | relative affinity | ~1.7
N#Cc1cccc(-c2ccc(=O)n(Cc3cccc(-c4ncc(OCC5CCN(CCCCC(=O)Nc6cccc7c6C(=O)N(C6CCC(=O)NC6=O)C7=O)CC5)cn4)c3)n2)c1 (stereo not shown) | Hepatocyte growth factor receptor (MET, Homo sapiens, UniProt P08581) | degrader | EBC-1 | – | – | Dmax | > 95%
CCCCCCCC/C=C\CCCCCCCC(=O)OC[C@@H]1OCC=C[C@@H]1OP(=O)(O)S (stereo partly shown) | Lysophosphatidic acid receptor 2 (LPAR2, Homo sapiens, UniProt Q9HBW0) | agonist, TGFα shedding | – | – | – | Emax | 30%
C[C@@H]1O[C@@H](OC[C@H]2O[C@@H](Oc3c(-c4ccc(O)cc4)oc4cc(O)cc(O)c4c3=O)[C@H](O[C@@H]3O[C@@H](C)[C@H](O)[C@@H](O)[C@H]3O)[C@@H](O)[C@H]2O)[C@H](O)[C@H](O)[C@H]1O | SLC5A1 | inhibitor | COS-7 expressing SLC5A1 | 50 µM | reference: control | 1-NBDG uptake | 17.5 ± 4.09%
CC1(C)Cc2sc(NC(=O)Cc3ccc(S(N)(=O)=O)cc3)c(C#N)c2CN1CC1CCCCC1 | Genome polyprotein, NS3 (Dengue virus type 2, UniProt P14340) | isothermal titration calorimetry | Zika virus | concentration not given | – | binding | no binding
COc1ccc(-c2cc(C(F)(F)F)nc(S(=O)(=O)CCC(=O)Nc3ccc(C)cc3)n2)cc1 | Bifunctional 3'-5' exonuclease/ATP-dependent helicase WRN (WRN, Homo sapiens, UniProt Q14191) | intact protein mass spectrometry | – | overnight, 4 °C, at least one cysteine alkylated, added: 10-fold compound excess | – | alkylated protein | ~86% and ~85%
Cn1cncn1.[Ru+2].c1cc(-c2ccc3ccccc3n2)nc(-c2ccc3ccccc3n2)c1.c1ccc2cc3nc4c5cccnc5c5ncccc5c4nc3cc2c1 | Procathepsin L (CTSL, Homo sapiens, UniProt P07711) | irreversible inhibitor | – | pH 5.5, green light, 10 min, added: Z-Phe-Arg-AMC | – | kinact/KI | < 10 M⁻¹ s⁻¹
Cc1cn([C@H]2C[C@H](O)[C@@H](COP(=O)(O)OP(=O)(O)C(F)(F)P(=O)(O)O)O2)c(=O)[nH]c1=O | POLB | nucleotide incorporation rate, substrate, single-turnover kinetics | single-nucleotide gapped DNA | 37 °C, wild type, correct incorporation, added: dTTP opposite template A | – | kpol | 14.6 ± 1.8 s⁻¹
CC(C)CCC[C@@H](C)[C@H]1CC[C@H]2[C@@H]3CC=C4C[C@@H](OS(=O)(=O)O)CC[C@]4(C)[C@H]3CC[C@]12C | Prothrombin (F2, Homo sapiens, UniProt P00734) | enzyme activity, inhibitor, chromogenic substrate | – | 10 min, pH 7.4, 25 °C, 0.02% Tween 80 | – | Hill slope | 3.3 ± 1.2
CC[C@H](C)[C@H](NC(=O)[C@@H](NC(=O)[C@H](CCCCN)NC(=O)[C@@H](NC(=O)[C@@H]1CCCN1[C@@H]1CN(C(=O)[C@@H](NC(=O)[C@@H](NC(=O)[C@@H](NC(=O)[C@@H](NC(=O)[C@@H](NC(=O)[C@@H](N)CCCCN)C(C)C)C(C)C)C(C)C)[C@@H](C)CC)[C@@H](C)O)CC[C@H]1NS(=O)(=O)c1ccc(C)cc1)[C@@H](C)O)C(C)C)C(=O)N[C@@H](CC(C)C)C(=O)N[C@@H](Cc1c[nH]cn1)C(N)=O | Microtubule-associated protein tau (MAPT, Homo sapiens, UniProt P10636) | inhibitor, ThT fluorescence | – | 5-fold over protein, added: heparin | – | aggregation inhibition | inhibited

Compound | target | assay | system | setting | how to read | measurement | value
Cc1cn(C2CC(O)C(COP(=O)(O)OP(=O)(O)C(F)P(=O)(O)O)O2)c(=O)[nH]c1=O (mixture of isomers) | POLB | substrate, single turnover kinetics | – | – | – | kpol/Kd | 220000 ± 30000 M⁻¹ s⁻¹
COc1ccc(-c2cc(C(F)(F)F)nc(NCc3ccc(F)cc3)n2)cc1OC | SCTR | cAMP accumulation, positive allosteric modulator | CHO-K1 overexpressing SCTR | added: EC10-EC20 secretin peptide mix | reference: EC95 peptide mix | Emax | 84 ± 9.1%
O=C1CC(c2ccccc2)N1S(=O)(=O)c1ccc(Br)cc1 (stereo not shown) | Rhomboid protease AarA (Providencia stuartii, UniProt P46116) | enzyme activity, inhibitor | – | 100 µM | – | remaining activity | 71 to 86%
COc1cccc(-c2cc(C(F)(F)F)nc(NCc3ccccc3)n2)c1 | SCTR | increase of tracer binding, TR-FRET | HEK293 membranes | added: Fluo-Sec 6 nM | – | Emax | 152 ± 20%
CN(C)c1ccc(/C=C/CNc2ccnc3cc(Cl)ccc23)cc1 | Nuclear receptor subfamily 4 group A member 2, ligand binding domain (Homo sapiens, UniProt P43354) | reporter gene, agonist, Gal4-Nurr1 hybrid reporter | HEK-293T | 30 µM, crude library product | reference: vehicle (0.1% DMSO) | activation | ≤ 1.5 fold
CCOC(=O)CNc1nc(-c2ccccc2)cc(C(F)(F)F)n1 | SCTR | cAMP accumulation, positive allosteric modulator | CHO-K1 overexpressing SCTR | added: EC10-EC20 secretin peptide mix | reference: EC95 peptide mix | Emax | 47 ± 12%
OCc1ccccc1S[C@@H]1O[C@H](CO)[C@H](O)[C@H](O)[C@H]1O | SLC5A1 | membrane depolarisation, FRET | CHO expressing SLC5A1 | 10 µM | reference: non-transfected CHO | transport | no effect
O=c1c2sccc2n(CC2COc3ccccc3O2)c(=O)n1O (stereo not shown) | Flap endonuclease 1 (Homo sapiens, UniProt P39748) | inhibitor | – | mixed inhibition, added: double-flap substrate DF1 | – | Kiu | 117 ± 27 nM
Cc1cc(=O)oc2cc(NC(=O)CCCCCCCC(=O)NO)ccc12 | Histone deacetylase 8 (HDAC8, Homo sapiens, UniProt Q9BY41) | temperature-dependent ITC | – | – | – | temperature where ΔG equals ΔH | 377 K
CNc1ccccc1C(=O)O[C@H]1C[C@H](n2cnc3c(N)ncnc32)O[C@@H]1COP(=O)(O)OP(=O)(O)O | Unconventional myosin-Va (Gallus gallus, UniProt Q02440, D297C/G292C/I296C/S293C/V295G) | van't Hoff analysis | – | concentration not given, added: 2 mM Mg2+ | – | T∆S of ligand binding | -2.9 ± 0.4 kcal/mol
CC(P(=O)(O)O)P(=O)(O)OP(=O)(O)OCC1OC(n2cnc3c(=O)[nH]c(N)nc32)CC1O (mixture of isomers) | DNA polymerase beta (POLB, Homo sapiens, UniProt P06746, I260M) | nucleotide incorporation rate, substrate, single-turnover kinetics | single-nucleotide gapped DNA | 37 °C, I260M, misincorporation, added: dGTP opposite template A | – | kpol | 0.0006 ± 8e-05 s⁻¹
COc1cc(C(=O)NC2CCC(N3CCN(CC4CCC5(CCCC5)C4)CC3)CC2)c(F)cc1Nc1ncc2c(n1)N(C1CCCC1(F)F)CC(F)(F)C(=O)N2C (stereo not shown) | High affinity nerve growth factor receptor (NTRK1, Homo sapiens, UniProt P04629) | cell-free assay, TR-FRET | – | 10 µM | – | inhibition | 0.75%
S=C(Nc1ccc(Cl)cc1)Nc1cccc2[nH]ccc12 | Microtubule-associated protein tau, 0N4R isoform (MAPT, Homo sapiens, UniProt P10636) | PICUP cross-linking | – | up to 200 µM | – | oligomer formation | no effect
Cc1cc(Nc2ccc(NC(=O)c3ccc(NC(=O)c4ccncc4)cc3)cc2)nc(N)n1 | DNA (cytosine-5)-methyltransferase 3A, catalytic domain (DNMT3A, Homo sapiens, UniProt Q9Y6K1) | enzyme activity, inhibitor, restriction-based fluorescence | – | concentration not given | – | activity class | inactive
N=C(N)NCCC[C@H](NC(=O)[C@H](CCCNC(=N)N)NC(=O)[C@H](Cc1ccc(O)cc1)NC(=O)[C@H](CCCCN)NC(=O)[C@H](Cc1ccc(O)cc1)NC(=O)[C@H](CCCCN)NC(=O)[C@H](CCCCN)NC(=O)[C@@H](N)CCCNC(=N)N)C(=O)N[C@@H](CCCCN)C(N)=O | integrin alphaM beta2 (human) | ligand binding, inhibitor, flow cytometry | human neutrophils | concentration not given, 1 h, 37 °C, integrin clustering inhibitor, added: Alexa 488-labelled fibrinogen | reference: no inhibitor, lower means less binding | bound fibrinogen fluorescence | 492 ± 50 MFI
CN1CCN(CC(=O)N2N=C3/C(=C/c4ccccc4)CCCC3C2c2ccccc2)CC1 (mixture of isomers) | Polyunsaturated fatty acid lipoxygenase ALOX12 (ALOX12, Homo sapiens, UniProt P18054) | activator | – | 20 µM, added: arachidonic acid | reference: activator 0 µM | enzyme activity | 83.3%
COc1ccc(-c2nc(CN3CCN(C(=O)c4ccc(C(C)(C)C)cc4)CC3)no2)cc1 | Potassium voltage-gated channel subfamily KQT member 2 (KCNQ2, Homo sapiens, UniProt O43526) | potassium current, activator, whole-cell patch clamp | CHO, stable | 20 µM | reference: current before compound | current fold increase | 1.11 ± 0.06
CCN(CC)C(=O)c1ccc(O)c(OC)c1 | Heat shock protein HSP 90-alpha, N-terminal domain (HSP90AA1, Homo sapiens, UniProt P07900) | binding, ligand-observed NMR titration | – | ligand to protein ratio 707 | – | bound ligand fraction | 0.13 mol %
c1ccc(-c2nn[nH]c2-c2ccccc2)cc1 | Troponin C, slow skeletal and cardiac muscles, with cTnI (TNNC1, Human, UniProt P63316, C35S/C84S/T53C) | stopped-flow fluorescence | – | 50 µM, IAANS-labelled chimera | – | Ca2+ dissociation rate | 51.8 ± 0.4 s⁻¹
Nc1nc2c(ncn2C2CC(O)C(COP(=O)(O)OP(=O)(O)C(Br)P(=O)(O)O)O2)c(=O)[nH]1 (mixture of isomers) | POLB | nucleotide incorporation rate, substrate, single-turnover kinetics | single-nucleotide gapped DNA | 37 °C, wild type, misincorporation, added: dGTP opposite template A | – | kpol | 0.0026 ± 0.0003 s⁻¹
